Experimental data of several laboratories.
Compare with care: the assays were run in different laboratories. Several values in a cell are separate wells, animals, samples, runs or records. ± marks the error that the study gave.
PTGIR: Prostacyclin receptor (PTGIR, Homo sapiens, UniProt P43119)
UniProt P43119, sequence (whole entry, looked up): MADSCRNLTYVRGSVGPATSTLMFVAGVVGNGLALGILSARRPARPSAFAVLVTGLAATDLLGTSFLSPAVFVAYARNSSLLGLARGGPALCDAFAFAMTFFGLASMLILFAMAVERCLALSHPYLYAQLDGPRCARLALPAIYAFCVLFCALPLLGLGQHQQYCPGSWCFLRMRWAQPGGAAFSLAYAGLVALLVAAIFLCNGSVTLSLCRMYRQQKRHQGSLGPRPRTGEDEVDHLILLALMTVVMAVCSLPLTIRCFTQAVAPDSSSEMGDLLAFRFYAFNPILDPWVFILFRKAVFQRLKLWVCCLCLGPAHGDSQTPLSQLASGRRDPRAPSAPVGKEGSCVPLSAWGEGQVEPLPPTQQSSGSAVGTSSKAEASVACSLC
ache: Acetylcholinesterase (ache, Electrophorus electricus, UniProt O42275)
UniProt Q16539, sequence (whole entry, looked up): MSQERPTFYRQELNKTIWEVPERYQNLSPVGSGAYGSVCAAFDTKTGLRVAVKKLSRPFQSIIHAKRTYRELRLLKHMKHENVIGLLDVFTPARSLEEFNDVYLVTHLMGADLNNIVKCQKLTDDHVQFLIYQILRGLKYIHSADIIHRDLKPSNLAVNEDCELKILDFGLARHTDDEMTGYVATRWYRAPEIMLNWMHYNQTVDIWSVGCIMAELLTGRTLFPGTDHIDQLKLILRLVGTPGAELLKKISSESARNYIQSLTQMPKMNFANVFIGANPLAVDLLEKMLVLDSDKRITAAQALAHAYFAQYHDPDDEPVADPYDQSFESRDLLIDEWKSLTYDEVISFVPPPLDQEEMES
UniProt O42275, sequence (whole entry, looked up): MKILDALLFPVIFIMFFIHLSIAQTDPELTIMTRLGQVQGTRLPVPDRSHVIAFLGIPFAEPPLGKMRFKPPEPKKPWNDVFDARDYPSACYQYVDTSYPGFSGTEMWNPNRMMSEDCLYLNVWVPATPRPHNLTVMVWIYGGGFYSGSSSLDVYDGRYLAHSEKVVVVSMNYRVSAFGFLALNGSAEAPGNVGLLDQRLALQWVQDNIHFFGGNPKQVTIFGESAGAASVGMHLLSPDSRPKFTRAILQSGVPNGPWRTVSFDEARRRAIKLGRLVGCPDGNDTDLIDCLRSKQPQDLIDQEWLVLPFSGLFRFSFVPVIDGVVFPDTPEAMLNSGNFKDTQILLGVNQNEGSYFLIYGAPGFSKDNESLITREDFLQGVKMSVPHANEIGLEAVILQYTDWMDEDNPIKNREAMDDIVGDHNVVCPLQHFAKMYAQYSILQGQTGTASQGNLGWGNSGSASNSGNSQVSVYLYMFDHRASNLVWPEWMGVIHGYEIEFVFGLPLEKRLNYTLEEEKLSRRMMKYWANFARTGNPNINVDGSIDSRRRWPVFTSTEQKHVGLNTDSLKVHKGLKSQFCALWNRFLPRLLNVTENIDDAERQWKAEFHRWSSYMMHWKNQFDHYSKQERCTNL
UniProt P21918, sequence (whole entry, looked up): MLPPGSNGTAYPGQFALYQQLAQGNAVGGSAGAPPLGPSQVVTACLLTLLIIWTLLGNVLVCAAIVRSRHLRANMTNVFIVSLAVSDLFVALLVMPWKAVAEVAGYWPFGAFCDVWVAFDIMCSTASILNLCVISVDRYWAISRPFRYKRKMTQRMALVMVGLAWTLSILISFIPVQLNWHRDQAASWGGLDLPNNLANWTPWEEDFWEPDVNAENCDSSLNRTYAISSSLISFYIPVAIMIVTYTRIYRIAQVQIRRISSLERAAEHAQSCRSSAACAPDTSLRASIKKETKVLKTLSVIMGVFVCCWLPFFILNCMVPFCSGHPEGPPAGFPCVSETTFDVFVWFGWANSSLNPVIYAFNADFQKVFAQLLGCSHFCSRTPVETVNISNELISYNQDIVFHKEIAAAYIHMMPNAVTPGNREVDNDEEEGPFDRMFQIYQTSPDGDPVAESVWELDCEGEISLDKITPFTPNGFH
UniProt Q9Y3R4, sequence (whole entry, looked up): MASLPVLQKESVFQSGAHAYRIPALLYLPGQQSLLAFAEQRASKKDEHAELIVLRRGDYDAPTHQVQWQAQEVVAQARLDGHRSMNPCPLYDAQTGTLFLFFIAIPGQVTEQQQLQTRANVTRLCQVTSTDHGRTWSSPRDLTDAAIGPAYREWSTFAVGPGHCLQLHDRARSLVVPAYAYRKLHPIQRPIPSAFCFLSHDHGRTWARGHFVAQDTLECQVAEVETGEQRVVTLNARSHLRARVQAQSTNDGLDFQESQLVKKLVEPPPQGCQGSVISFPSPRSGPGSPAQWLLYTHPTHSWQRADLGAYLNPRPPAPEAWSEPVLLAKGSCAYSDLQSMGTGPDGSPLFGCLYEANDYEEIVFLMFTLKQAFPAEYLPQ
UniProt Q8WTQ7, sequence (whole entry, looked up): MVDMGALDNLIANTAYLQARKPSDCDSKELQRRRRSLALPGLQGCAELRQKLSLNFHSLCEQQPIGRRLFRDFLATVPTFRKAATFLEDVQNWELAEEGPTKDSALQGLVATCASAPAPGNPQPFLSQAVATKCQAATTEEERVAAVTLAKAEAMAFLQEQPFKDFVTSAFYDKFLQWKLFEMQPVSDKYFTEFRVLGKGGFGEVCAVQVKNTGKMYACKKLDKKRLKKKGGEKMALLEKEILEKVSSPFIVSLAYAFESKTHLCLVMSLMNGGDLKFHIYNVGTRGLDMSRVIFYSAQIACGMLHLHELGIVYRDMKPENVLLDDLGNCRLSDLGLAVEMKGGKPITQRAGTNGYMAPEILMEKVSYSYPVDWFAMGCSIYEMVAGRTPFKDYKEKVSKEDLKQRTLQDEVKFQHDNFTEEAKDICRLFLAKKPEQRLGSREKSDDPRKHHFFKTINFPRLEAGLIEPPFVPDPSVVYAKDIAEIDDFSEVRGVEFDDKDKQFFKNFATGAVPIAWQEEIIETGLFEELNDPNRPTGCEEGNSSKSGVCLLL
UniProt Q2M2I8, sequence (whole entry, looked up): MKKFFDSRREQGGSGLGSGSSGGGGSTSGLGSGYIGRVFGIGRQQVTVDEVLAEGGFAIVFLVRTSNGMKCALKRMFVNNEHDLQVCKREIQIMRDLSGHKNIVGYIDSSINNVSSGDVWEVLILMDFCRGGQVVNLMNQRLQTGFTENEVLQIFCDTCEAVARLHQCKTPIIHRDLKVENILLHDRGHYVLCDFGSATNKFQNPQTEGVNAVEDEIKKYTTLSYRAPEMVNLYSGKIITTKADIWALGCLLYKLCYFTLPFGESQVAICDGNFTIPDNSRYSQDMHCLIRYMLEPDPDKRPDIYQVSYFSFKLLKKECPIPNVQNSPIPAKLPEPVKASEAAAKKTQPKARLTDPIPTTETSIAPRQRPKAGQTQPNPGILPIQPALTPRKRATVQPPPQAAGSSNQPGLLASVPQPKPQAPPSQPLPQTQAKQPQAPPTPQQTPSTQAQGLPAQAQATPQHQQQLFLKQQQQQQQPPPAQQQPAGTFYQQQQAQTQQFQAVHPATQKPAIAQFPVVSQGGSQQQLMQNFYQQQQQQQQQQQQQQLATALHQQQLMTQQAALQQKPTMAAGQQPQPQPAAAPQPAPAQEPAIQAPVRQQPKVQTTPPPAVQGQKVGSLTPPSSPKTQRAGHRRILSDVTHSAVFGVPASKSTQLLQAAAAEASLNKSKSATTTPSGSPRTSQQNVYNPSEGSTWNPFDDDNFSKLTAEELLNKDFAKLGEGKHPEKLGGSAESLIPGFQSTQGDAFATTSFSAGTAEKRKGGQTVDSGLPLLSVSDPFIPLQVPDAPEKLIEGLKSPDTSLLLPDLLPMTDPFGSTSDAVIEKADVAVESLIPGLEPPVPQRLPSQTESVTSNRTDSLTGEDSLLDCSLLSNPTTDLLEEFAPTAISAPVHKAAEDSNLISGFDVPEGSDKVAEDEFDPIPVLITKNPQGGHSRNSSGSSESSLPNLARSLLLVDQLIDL
UniProt P00330, sequence (whole entry, unmodified, looked up): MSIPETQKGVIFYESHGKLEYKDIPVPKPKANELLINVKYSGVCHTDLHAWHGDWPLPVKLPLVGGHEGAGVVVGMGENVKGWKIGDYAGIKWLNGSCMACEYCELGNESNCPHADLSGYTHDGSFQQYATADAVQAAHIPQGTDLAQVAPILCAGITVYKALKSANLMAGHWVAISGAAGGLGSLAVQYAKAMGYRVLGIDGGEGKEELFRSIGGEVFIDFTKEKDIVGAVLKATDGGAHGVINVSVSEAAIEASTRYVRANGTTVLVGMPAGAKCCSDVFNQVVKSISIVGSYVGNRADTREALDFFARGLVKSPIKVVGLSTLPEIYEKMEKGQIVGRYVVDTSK
UniProt P07026, sequence (whole entry, looked up): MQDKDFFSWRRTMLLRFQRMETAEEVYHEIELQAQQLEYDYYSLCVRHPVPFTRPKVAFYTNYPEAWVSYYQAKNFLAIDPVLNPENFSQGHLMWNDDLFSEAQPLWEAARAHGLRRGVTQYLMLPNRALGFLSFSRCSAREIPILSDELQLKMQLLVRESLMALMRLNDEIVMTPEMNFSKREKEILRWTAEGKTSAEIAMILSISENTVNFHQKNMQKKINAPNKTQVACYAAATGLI
UniProt P08510, sequence (whole entry, unmodified, looked up): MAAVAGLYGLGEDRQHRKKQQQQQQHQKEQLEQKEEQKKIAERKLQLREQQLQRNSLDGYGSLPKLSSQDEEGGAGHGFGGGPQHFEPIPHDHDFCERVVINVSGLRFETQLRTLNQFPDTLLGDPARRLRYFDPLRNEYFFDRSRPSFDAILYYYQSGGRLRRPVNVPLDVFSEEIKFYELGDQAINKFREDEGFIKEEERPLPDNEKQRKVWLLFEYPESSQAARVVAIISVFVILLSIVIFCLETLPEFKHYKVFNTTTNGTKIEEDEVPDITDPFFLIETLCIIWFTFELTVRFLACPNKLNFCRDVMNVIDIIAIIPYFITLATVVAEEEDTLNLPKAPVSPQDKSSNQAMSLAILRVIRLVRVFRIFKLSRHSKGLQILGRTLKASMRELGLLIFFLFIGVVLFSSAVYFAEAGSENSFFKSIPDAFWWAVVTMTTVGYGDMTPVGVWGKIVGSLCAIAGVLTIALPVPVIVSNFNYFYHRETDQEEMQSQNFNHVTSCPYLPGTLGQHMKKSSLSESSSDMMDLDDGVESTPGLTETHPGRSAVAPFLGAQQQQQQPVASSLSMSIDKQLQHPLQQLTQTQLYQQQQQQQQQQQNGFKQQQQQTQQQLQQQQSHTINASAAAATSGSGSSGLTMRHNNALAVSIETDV

Structure (SMILES) | target or system | test | system | conditions | how to read | measurement | value
O=C(CF)N[C@H]1[C@H]([C@H](O)[C@H](O)CO)O[C@@](OC[C@H]2O[C@@H](Oc3ccc([N+](=O)[O-])cc3)[C@H](O)[C@@H](O)[C@H]2O)(C(=O)O)C[C@@H]1O | Sialidase-2 (Homo sapiens, UniProt Q9Y3R4) | substrate | – | 10 min, pH 5.0, 37 °C | – | kcat | 0.11 ± 0.01 s⁻¹
COc1cc(Nc2ncc(F)c(Nc3ccc4c(n3)NC(=O)C(C)(C)O4)n2)cc(OC)c1OC | AP2-associated protein kinase 1 (AAK1, Homo sapiens, UniProt Q2M2I8) | KINOMEscan | – | 10 µM | – | inhibition | 89%
Nc1nc2c(ncn2[C@@H]2O[C@H](COP(=O)(O)OP(=O)(O)OP(=O)(O)O)[C@@H](O)[C@H]2O)c(=O)[nH]1 | GTP 3',8-cyclase (moaA, Staphylococcus aureus, UniProt P69848, R268K) | isothermal titration calorimetry | – | concentration not given, 25 °C, R268K mutant, anaerobic | – | binding entropy ΔS | -25.1 cal/mol/K
NC(CC1(C(=O)O)CC2OC(CO)C(O)C(N)C2O1)C(=O)O (centres unmarked) | Glutamate receptor ionotropic, kainate 1 (Rattus norvegicus, UniProt P22756, del402-416) | glutamate-evoked current, patch clamp | – | concentration not given, 30 s application | – | recovered plateau current amplitude | 69%
O=C(Nc1ccc2c(c1)B(O)OC2)c1cccc(OCC2CCCCC2)c1 | Genome polyprotein, NS2B-NS3 protease (dengue virus type 2, UniProt P29990) | enzyme activity, FRET | dengue virus serotype 2 | 50 µM, with: substrate 50 µM | – | inhibition | 18 ± 2%
Nc1ncc(-c2nc(N3CCOCC3)nc(N3CCOCC3)n2)c(C(F)F)n1 | Serine/threonine-protein kinase B-raf (BRAF, Homo sapiens, UniProt P15056, V600E) | KINOMEscan | – | 10 µM | – | remaining binding | 42%
Oc1ccc(-c2cccc(Cl)c2)cc1Cl | Estrogen receptor (ESR1, Homo sapiens, UniProt P03372) | reporter gene, agonist | T47D.luc | 24 h | relative to: estradiol | EC25 | 5 µM
O=C(Nc1cccnn1)N1CCC(=Cc2cccc(Oc3ccc(C(F)(F)F)cn3)c2)CC1 | PTGIR | radioligand binding, inhibitor | – | 50 µM, human, with: [3H]iloprost | – | inhibition | 30%
CN1CCN(c2cc(-c3ccncc3)c(-c3ccc4ccccc4c3)nn2)CC1 | D(1B) dopamine receptor (DRD5, Homo sapiens, UniProt P21918) | agonist, FLIPR | – | 12.5 µM | – | activation | -1.1%
O=c1[nH]c(=O)n(C2CCCO2)cc1F (centres unmarked) | human coronavirus OC43 | virus-induced cell killing | MRC-5 | maximum over 10 doses | – | maximum inhibition | 0%
[2H]c1c([2H])c([C@]2([2H])CCCN2C(=O)C(C)(C)Oc2ccc3cn[nH]c3c2)c([2H])c([2H])c1C([2H])([2H])[2H] | Rhodopsin kinase GRK7 (GRK7, Homo sapiens, UniProt Q8WTQ7) | KINOMEscan | – | 1 µM | relative to: DMSO control | remaining binding | 90%
O=Cc1ccccc1 | uncharacterized protein (Spodoptera exigua, UniProt F1CEY0) | binding, competitor, fluorescence displacement | – | 20 µM, pH 7.4, with: 1-NPN 20 µM | relative to: 1-NPN alone | relative fluorescence | 66.4%
CN[C@H]1CC[C@@H](c2ccc(Cl)c(Cl)c2)c2ccc(S(N)(=O)=O)cc21 | DDB1- and CUL4-associated factor 7 (Homo sapiens, UniProt P61962) | binding, affinity selection mass spectrometry | – | 100 nM, pooled screen | relative to: other proteins | fold change | 30.2
CI | HOL1 (Arabidopsis thaliana, UniProt Q0WP12, L101I/V140T/V178E/T213S) | substrate, iodide release colorimetric | – | pH 7.5, sodium phosphate buffer, with: 1 mM SAH | – | Km | 4900 ± 1250 µM
CCCCC/C=C\C/C=C\C/C=C\C/C=C\CCCC(=O)O | Bifunctional cytochrome P450/NADPH--P450 reductase (cyp102A1, Bacillus megaterium, UniProt P14779) | NADPH consumption, substrate | – | 100 µM | – | kcat | 7.12 ± 0.05 µmol/min/nmol
O=C(O)Cc1c[nH]cn1 | Sodium- and chloride-dependent taurine transporter (SLC6A6, Homo sapiens, UniProt P31641, Y138A) | binding, microscale thermophoresis | – | 122 nM, room temperature, with: 50 nM labelled protein | higher = more binding | normalised MST signal | -0.0198
O=C(O)C(/C=C/c1c(Cl)cccc1Cl)=N\Nc1nc(-c2ccc(Cl)cc2)cs1 | ache | Ellman | – | – | relative to: IC50 BChE over IC50 AChE | selectivity index | 80
CSCC[C@H](N)C(=O)N[C@@H](C)C(=O)N[C@@H](C)C(=O)N[C@H](C(=O)N[C@@H](C)C(=O)NCC(=O)N[C@@H](CC(C)C)C(=O)N[C@@H](Cc1ccc(O)cc1)C(=O)NCC(=O)N[C@@H](CC(C)C)C(=O)NCC(=O)N[C@@H](CCC(=O)O)C(=O)N[C@@H](CC(=O)O)C(=O)N[C@@H](CCCNC(=N)N)C(=O)N[C@@H](CCC(N)=O)C(=O)N[C@@H](Cc1c[nH]cn1)C(=O)N[C@@H](CCCNC(=N)N)C(=O)N[C@@H](CCCCN)C(=O)N[C@@H](CCCCN)C(=O)N[C@@H](CCC(N)=O)C(N)=O)C(C)C | Sh, DEL6-46 (Drosophila melanogaster, UniProt P08510) | ion current, blocker, inside-out patch clamp | – | +70 mV | – | Hill coefficient | 0.87
O=C(O)COP(=O)(O)O | TPI1 (Saccharomyces cerevisiae, UniProt P00942, S211G) | enzyme activity, competitive inhibitor, GPDH/NADH-coupled | – | pH 9.9, 25 °C, ionic strength 0.1 NaCl, with: glyceraldehyde 3-phosphate substrate | relative to: mutant over wild type | Ki ratio | 1.6
CC1=C(C)C(=O)c2ccccc2C1=O | Reaction center protein L chain, QB site (pufL, Cereibacter sphaeroides, UniProt P0C0Y8) | binding | – | – | relative to: QA site over QB site | affinity ratio | > 3000 fold
COc1ccc2c3c([nH]c2c1)CCN(C)CC3.O=C(O)/C=C/C(=O)O | Nicotinic acetylcholine receptor alpha9/alpha10 (Rattus norvegicus, UniProt P43144+Q9JLB5) | ion current, inhibitor, two-electrode voltage clamp | Xenopus laevis oocytes | 3 µM, rat receptor, with: acetylcholine 100 µM | – | recovery time constant | 19.3 ± 1.2 s

Structure (SMILES) | target or system | test | system | conditions | how to read | measurement | value
CC(C)C[C@@H]1NC(=O)[C@H](CC(=O)O)NC(=O)[C@@H]2CCCN2C(=O)[C@@H](NC(=S)Nc2ccc3c(c2)C(=O)OC32c3ccc(O)cc3Oc3cc(O)ccc32)CSCc2cccc(c2)CSC[C@@H](C(N)=O)NC1=O | Kelch-like protein 20 (Homo sapiens, UniProt Q9Y2M5) | binding, pull-down proteomics | PC-3 lysates | concentration not given | relative to: control probe | log2 fold change | 11
NC(=O)C1=CN([C@@H]2O[C@H](COP(=O)(O)OP(=O)(O)OC[C@H]3O[C@@H](n4cnc5c(N)ncnc54)[C@H](O)[C@@H]3O)[C@@H](O)[C@H]2O)C=CC1 | ADH1 (Saccharomyces cerevisiae, UniProt P00330, H49Q) | enzyme activity, substrate | – | pH 7.3, 30 °C | – | Km | 110 µM
Nc1ccncc1 | Glutamate receptor 2 (Homo sapiens, UniProt P42262) | ion current, agonist, automated patch clamp | HEK293 | 3 µM | – | activation | 4%
COc1cc(N)c(Cl)cc1C(=O)NC1CN2CCC1CC2 (centres unmarked) | Retinoic acid-induced protein 3 (GPRC5A, Homo sapiens, UniProt Q8NFJ5) | β-arrestin recruitment, TANGO luminescence, item: GPRC5A | – | concentration not given | relative to: basal luminescence | log2 fold change | 0.085
Nc1nc2c(ncn2[C@@H]2O[C@@H]3COP(=O)(O)O[C@H]4[C@@H](O)[C@H](n5cnc6c(=O)[nH]c(N)nc65)O[C@@H]4COP(=O)(O)O[C@H]3[C@H]2O)c(=O)[nH]1 | Cell cycle histidine kinase CckA, cytoplasmic region (Caulobacter vibrioides, UniProt Q9X688) | binding, ITC | – | 12 °C, with: ADP 5 mM | – | -TΔS | -12.5 kcal/mol
CN[C@@H]1C[C@H]2O[C@@](C)([C@@H]1OC)n1c3ccccc3c3c4c(c5c6ccccc6n2c5c31)C(=O)NC4 | Mitogen-activated protein kinase 14 (MAPK14, Homo sapiens, UniProt Q16539) | kinase activity, Kinase-Glo luminescence | – | concentration not given | – | normalized luminescence | -0.0319 and -0.0476 and 0.00683
O=C(c1ccc(Cl)cc1)N1CCN2C(=O)N(OC(=O)N3CCOc4ccccc43)C(=O)C2C1 (centres unmarked) | Testis-expressed protein 30 (TEX30, Homo sapiens, UniProt Q5JUR7) | enzyme activity, inhibitor, MS-based ABPP | SW-620 in situ | 10 µM, 2 h, 37 °C | relative to: compound over DMSO, lower = stronger inhibition | median ratio | 1.07
O=C(Nc1cnccc1Cl)N1CCN(Cc2ccc3c(c2)OC(F)(F)O3)CC1 | PTGIR | radioligand binding, inhibitor | – | 10 µM, human, with: [3H]iloprost | – | inhibition | 2%
O=C(Cc1cccc([N+](=O)[O-])c1)NC1CCCC1 | Regulatory protein SdiA (sdiA, Escherichia coli, UniProt P07026) | – | – | – | – | Emax | 103%
O=C(NNC(=O)c1csnn1)c1ccc(Cl)cc1 | Acetyl-CoA synthetase (Cryptococcus neoformans, UniProt J9VFT1) | – | – | 25 µM | – | remaining activity | 5.23%
CCCCC/C=C\C/C=C\C/C=C\C/C=C\CCCC(=O)NCCO | Transient receptor potential cation channel subfamily V member 1 (Trpv1, Mus musculus, UniProt Q704Y3, S513A) | ion current, agonist, whole-cell patch clamp | – | – | relative to: 3 mM 2-APB current | maximal open probability | 0.98 ± 0.22
CC1(C)C(C=C(Cl)Cl)C1C(=O)OCc1cccc(Oc2ccccc2)c1 (centres unmarked) | uncharacterized protein (Anopheles coluzzii, UniProt A0A6E8VQK1) | enzyme activity, inhibitor | Sf9 cell homogenate | 209.3 µM, 0.1667 h, with: α-naphthyl acetate substrate | relative to: no inhibitor | remaining activity | 2.7%
COc1cc(F)cc2c(N3CCN4c5ccccc5NCC4C3)c(C#N)nnc12 (centres unmarked) | Metabotropic glutamate receptor 8 (GRM8, Homo sapiens, UniProt O00222) | positive allosteric modulator | – | with: glutamate | relative to: glutamate maximum | efficacy | 68%
COc1cc(/C=C/c2ccc(O)cc2)cc(OC)c1 | O-methyltransferase (Sorghum bicolor, UniProt A0A1B6PFV1, W279A) | isothermal titration calorimetry | – | with: RSV | – | ∆H | -8.53 ± 0.155 kcal/mol
Cc1cc(N)c2ccccc2[n+]1CCCCCCCCCC[n+]1c(C)cc(N)c2ccccc21 | ache | enzyme activity, inhibitor, Amplex Red | – | – | – | Hill slope | 0.87
O=S(=O)(O)C(F)(F)C(F)(F)C(F)(F)C(F)(F)C(F)(F)C(F)(F)F | Fatty acid-binding protein, liver (FABP1, Homo sapiens, UniProt P07148) | affinity selection mass spectrometry | – | 100 nM, with: pooled compounds | relative to: other proteins | binding fold change | 153
C[C@H]1CN(c2n[nH]c3nc(N[C@H]4CC[C@H](NS(=O)(=O)CCC(F)(F)F)CC4)ncc23)CCO1 | MICOS complex subunit MIC19 (Homo sapiens, UniProt Q9NX63) | Kinobeads competition, item: CHCHD3 | – | 0.032 µM, unit not given | relative to: vehicle | remaining binding | 1.09
COc1ccc(N2C(=O)N(c3c(C)cccc3Cl)Cc3cnc(Nc4ccc(C5CCN(C)CC5)cc4OC)nc32)nc1 | Serine/threonine-protein kinase MARK1 (MARK1, Homo sapiens, UniProt Q9P0L2) | kinase activity | – | 0.5 µM | – | inhibition | 50%
CC(C)c1onc(-c2c(Cl)cccc2Cl)c1COc1ccc(/C=C/c2cccc(C(=O)O)c2)c(Cl)c1 | human coronavirus OC43 | virus-induced cell killing | MRC-5 | screen | – | maximum inhibition | 13.4%
CN(C(=O)n1cnc(-c2ccc[n+]([O-])c2)c1)C1CCCCC1 | Adenosine receptor A1 (ADORA1, Homo sapiens, UniProt P30542) | radioligand binding | – | 10 µM, with: [3H]DPCPX | – | inhibition | 8%

Some of these lines once more:
Structure (SMILES) | target or system | test | system | conditions | how to read | measurement | value
COc1cc(N)c(Cl)cc1C(=O)NC1CN2CCC1CC2 (centres unmarked) | Retinoic acid-induced protein 3 (GPRC5A, Homo sapiens, UniProt Q8NFJ5) | β-arrestin recruitment, TANGO luminescence, item: GPRC5A | – | concentration not given | relative to: basal luminescence | log2 fold change | 0.085
O=Cc1ccccc1 | uncharacterized protein (Spodoptera exigua, UniProt F1CEY0) | binding, competitor, fluorescence displacement | – | 20 µM, pH 7.4, with: 1-NPN 20 µM | relative to: 1-NPN alone | relative fluorescence | 66.4%
O=C(O)COP(=O)(O)O | TPI1 (Saccharomyces cerevisiae, UniProt P00942, S211G) | enzyme activity, competitive inhibitor, GPDH/NADH-coupled | – | pH 9.9, 25 °C, ionic strength 0.1 NaCl, with: glyceraldehyde 3-phosphate substrate | relative to: mutant over wild type | Ki ratio | 1.6
